Results collected from several papers.
A part holds a random share of what one study measured. Values joined by “and” are separate records of one study, mostly repeats; a detail may differ.

Study 1 — medium: plasma; route: intravenous; dose: 1 mg/kg; measurement: Vd
Compound: Cc1ccc(O)c(C)c1-c1cnc2[nH]c(-c3cnc(N4CCC5(CC4)CC(N4CCN(c6ccc(N[C@H]7CCC(=O)NC7=O)cc6F)CC4)CO5)nc3)cc2c1C#N (single isomer, unassigned)
male beagle dog: 3.3 L/kg
male cynomolgus monkey: 5.1 L/kg
male Sprague-Dawley rat: 3.7 L/kg

Study 2 — observed: kinase activity; mode: inhibitor; technique: ADP-Glo; concentration: 0.0247 µM; measurement: inhibition
Target: Cyclin-dependent kinase 12, with cyclin K (CDK12, Homo sapiens, UniProt Q9NYV4)
Sequence of UniProt Q9NYV4 (whole entry, looked up): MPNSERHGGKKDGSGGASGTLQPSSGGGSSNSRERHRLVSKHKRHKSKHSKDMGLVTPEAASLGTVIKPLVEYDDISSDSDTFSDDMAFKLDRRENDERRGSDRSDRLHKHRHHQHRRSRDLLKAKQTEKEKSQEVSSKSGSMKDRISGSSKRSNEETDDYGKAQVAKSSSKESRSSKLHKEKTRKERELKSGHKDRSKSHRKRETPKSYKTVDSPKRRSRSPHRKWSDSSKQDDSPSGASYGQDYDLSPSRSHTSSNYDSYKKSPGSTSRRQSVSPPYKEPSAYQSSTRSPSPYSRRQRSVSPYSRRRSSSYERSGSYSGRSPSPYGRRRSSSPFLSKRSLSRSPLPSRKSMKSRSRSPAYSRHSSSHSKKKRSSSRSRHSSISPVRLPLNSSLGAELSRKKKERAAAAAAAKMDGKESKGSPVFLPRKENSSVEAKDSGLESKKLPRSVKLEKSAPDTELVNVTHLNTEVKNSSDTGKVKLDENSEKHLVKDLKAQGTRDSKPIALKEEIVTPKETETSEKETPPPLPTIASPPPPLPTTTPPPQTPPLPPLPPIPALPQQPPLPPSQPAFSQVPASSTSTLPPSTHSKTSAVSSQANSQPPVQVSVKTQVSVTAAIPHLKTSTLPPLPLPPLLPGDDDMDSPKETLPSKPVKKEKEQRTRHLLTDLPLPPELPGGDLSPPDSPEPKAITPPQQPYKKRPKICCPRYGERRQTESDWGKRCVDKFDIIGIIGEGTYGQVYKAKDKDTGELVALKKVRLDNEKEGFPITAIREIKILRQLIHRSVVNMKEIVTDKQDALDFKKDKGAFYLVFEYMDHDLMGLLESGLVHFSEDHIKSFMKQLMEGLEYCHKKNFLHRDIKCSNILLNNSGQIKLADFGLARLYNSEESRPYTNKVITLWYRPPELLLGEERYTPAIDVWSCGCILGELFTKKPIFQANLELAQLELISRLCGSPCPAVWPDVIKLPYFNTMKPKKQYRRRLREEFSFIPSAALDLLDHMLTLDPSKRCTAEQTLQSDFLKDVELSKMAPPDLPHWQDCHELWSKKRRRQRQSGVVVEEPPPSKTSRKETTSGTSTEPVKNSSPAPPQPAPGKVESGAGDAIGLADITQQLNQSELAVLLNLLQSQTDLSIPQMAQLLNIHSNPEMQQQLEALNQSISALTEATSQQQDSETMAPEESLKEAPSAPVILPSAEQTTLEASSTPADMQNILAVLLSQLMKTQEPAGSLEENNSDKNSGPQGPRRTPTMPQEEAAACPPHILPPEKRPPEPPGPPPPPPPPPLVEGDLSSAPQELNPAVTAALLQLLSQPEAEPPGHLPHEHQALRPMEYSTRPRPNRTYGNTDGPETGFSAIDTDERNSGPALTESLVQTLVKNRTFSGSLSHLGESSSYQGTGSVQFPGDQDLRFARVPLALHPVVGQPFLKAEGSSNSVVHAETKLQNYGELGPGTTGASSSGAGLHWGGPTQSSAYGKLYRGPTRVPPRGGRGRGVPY
CCCCOc1nc(NCc2nc3cc(Cl)c(Cl)cc3[nH]2)c2ncn(CC)c2n1: 10.6%
CC(=O)N1CCN(c2nc(NCc3nc4cc(Cl)c(Cl)cc4[nH]3)c3ncn(C(C)C)c3n2)CC1: -3.3%
CCn1cnc2c(NCc3nc4cc(Cl)c(Cl)cc4[nH]3)nc(N3CCN(C(=O)c4ccccn4)CC3)nc21: 9.4%
CCn1cnc2c(NCc3nc4cc(Cl)c(Cl)cc4[nH]3)nc(N3CCC(NC(C)=O)CC3)nc21: 14.6%
CCn1cnc2c(NCc3nc4cc(Cl)c(Cl)cc4[nH]3)nc(N3CCN(C(=O)[C@H](C)NC(C)=O)CC3)nc21: -14.7%
CC(=O)N1CCN(c2nc(NCc3nc4cc(Cl)c(Cl)cc4[nH]3)c3ncn(C)c3n2)CC1: -1.1%
CCn1cnc2c(NCc3nc4cc(F)c(F)cc4[nH]3)nc(N3CCn4ncnc4C3)nc21: 19.6%
CCn1cnc2c(NCc3nc4cc(Cl)c(Cl)cc4[nH]3)nc(N3CCN(Cc4ccncc4)CC3)nc21: -8.1%

Study 3 — baseline: vehicle; measurement: viability
Compound: C#Cc1cccc2cc(O)cc(-c3ncc4c(N5CC6CCC(C5)N6)nc(OCC56CCCN5CCC6)nc4c3F)c12
HEK293; CellTiter-Glo; 1.52 nM: 98.7% and 95.9% and 98.2%
HEK293; CellTiter-Glo; 41.1 nM: 99.1% and 101% and 98.5%
NCI-H647; cell proliferation, CellTiter-Glo luminescence; 1 µM: 82.4% and 85.1% and 86%
HEK293; CellTiter-Glo; 4.57 nM: 101% and 98.3% and 104%
HEK293; CellTiter-Glo luminescence; 0.5229 µM: 90.7% and 89.4% and 93.4%
HEK293; CellTiter-Glo; 10 µM: 92.3% and 91.8% and 87.2%
HEK293; CellTiter-Glo luminescence; 1 µM: 91.8% and 87.2% and 92.3%
HEK293; CellTiter-Glo; 370 nM: 96.5% and 99.4% and 94.2%

Single results of other studies
Cn1cc(-c2cccc(CN3CCC4(CC3)COc3c4ccc4c3CN([C@H]3CCC(=O)NC3=O)C4=O)c2)cn1  steady-state volume of distribution (cynomolgus monkeys; intravenous, 1.00 mg/kg): 8.15 L/kg

For quick reference, copied from above (study 2):
CCn1cnc2c(NCc3nc4cc(Cl)c(Cl)cc4[nH]3)nc(N3CCN(C(=O)c4ccccn4)CC3)nc21: 9.4%
CCn1cnc2c(NCc3nc4cc(Cl)c(Cl)cc4[nH]3)nc(N3CCC(NC(C)=O)CC3)nc21: 14.6%
